Published values from different studies.
Parts stem from different laboratories: compare values within a part only. Substitutions count along the parent as printed.

Study 1
Target: Histone acetyltransferase KAT6A, winged helix 1, GST fusion (KAT6A, Homo sapiens, UniProt Q92794, residues 1-85)
Technique: protein binding microarray
Form: double-stranded DNA, one strand shown
Sample: in vitro
Concentration: not given
Setting: 8-mer, flanks averaged, mean of 2 arrays, mostly near background
Reference: not given
Reading: higher = stronger binding
Residues (chain): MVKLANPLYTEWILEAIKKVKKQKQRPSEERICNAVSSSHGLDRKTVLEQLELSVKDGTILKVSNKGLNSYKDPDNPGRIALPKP
Strand | E-score
GAAACCGC | 0.22
CAATGGAC | -0.12
AGCAAATC | -0.147
CTATAGCA | 0.095
AGTGCCCC | 0.115
AGGTGATG | -0.0991
GCTACAGC | -0.0356
CACCTTAA | -0.106
TCCAGCCA | -0.163
GACGCTAC | 0.182
GACTCCAC | -0.0806
AACGACGG | 0.297
AGTTCCTG | -0.208
AGATCTCA | -0.107
CAGTGGCG | 0.0156
AGCACTCC | -0.14
AGACTCGG | 0.0175
GTTCTACA | -0.0122
AGTGTTTG | -0.141
GACTGAGA | -0.149
ACCACCTA | -0.0503
TGCTGCCA | -0.145
GTTCAGCA | -0.281
TCACGACA | -0.163
ACCTTAAC | -0.00371

Study 2
Target: Sal-like protein 4, full length isoform B (SALL4, Homo sapiens, UniProt Q9UJQ4-2, residues 1-616)
Technique: universal PBM
Form: double-stranded DNA, one strand shown
Sample: in vitro
Concentration: not given
Setting: 8-mer, flanks averaged, mean of replicates
Reading: higher = stronger binding
Strand | E-score
CGGTAGAC | -0.0659
GAAATGAA | 0.232
CTTTCGCA | -0.0413
AGTTTCGC | -0.0628
ATTAGCTC | 0.0689
CGCAGCAG | -0.143
GGTTTCGA | -0.258
ATACTGAA | 0.232
CCCGATTC | -0.0986
AAAGTATC | 0.196
AACAACCC | -0.0205
GAAGACAA | 0.141
TAGCGCTA | 0.0566
CCTCTGAA | -0.166
CAGCAAAA | 0.134
ATCCGACA | -0.0155
CGGGTCTA | -0.0665
CAGCAGAC | -0.142
ACCTCCGG | -0.289
ACCAGGAG | -0.227
AAGATTCA | 0.152
AATGGCCG | -0.216
GCTCCTAC | -0.0714
TCTGCTCA | -0.0598
GCGATACC | -0.182

Study 3
Target: RNA binding protein fox-1 homolog 2, RRM domain, GST-SBP tag (RBFOX2, Homo sapiens, UniProt O43251-10, residues 100-194)
Technique: RNA Bind-n-Seq
Form: RNA
Sample: in vitro
Concentration: 365 nM
Setting: natural RNA segment, single round, ends assumed
Reference: no-protein control
Reading: higher = stronger binding
Residues (chain): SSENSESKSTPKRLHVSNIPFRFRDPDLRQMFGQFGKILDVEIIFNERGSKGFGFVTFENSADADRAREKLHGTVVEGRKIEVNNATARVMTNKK
Strand | RBNS enrichment (R)
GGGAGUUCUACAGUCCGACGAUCCAAAACUACGGAUGUCAGAGGGACCUGUUUCUAGAGUGAGUCCCAAUUACAUCAAAGGGCAACCUGCGCUUUCUCCAAUAAGUCUGAGUGGUUCUCUUGAGCUGGUGUCAUGGAAUUCUCGGGUGCCAA | 0.247
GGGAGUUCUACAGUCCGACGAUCACCACGUCUGUGCCCUGCACUGUCCCCACAGCCUUCCACACCCUGUGCAUAGGCAGCCCUCUCACGUCUUGAGGUCCGAAGCUGGGGUGGGGGUGUCCGUCAGUUAUUAGUGGAAUUCUCGGGUGCCAA | 0.377
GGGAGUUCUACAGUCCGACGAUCUUAAGAUUAUGUAUUUGCUACAAAGUAUUGUACUUGUCUCAAUGGGAAUGGUGUUAAAAAAGAAAAAAAGACAGAAAAGGCCUUAUGUGAUAUGUAUCAUAGUUAAUAAAUGGAAUUCUCGGGUGCCAA | 0.815
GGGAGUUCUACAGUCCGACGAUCGGAGCAAGUGCCAAGCAGAACAGACCUUAUCAUCUGGGUAACAGACUUCUCAGUGUUGGUGCUGUGUCUGUUAGAGCCUUAGAGCAAGUUAAGCACUUCCUUGGUGUGGGUGGAAUUCUCGGGUGCCAA | 0.264
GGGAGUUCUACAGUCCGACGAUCCUGGCUUGGACUUUAGCGGGGAGGGAAGCCAGGGGAUUUUGAAGGGUGGACAUUAGGGUAGGGUGAGGUCAACCUAAUACUGACUUGUCAGUAUCUCCAGCUCUGAUUACUGGAAUUCUCGGGUGCCAA | 0.734
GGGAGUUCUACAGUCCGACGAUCGUAUUUGAUUAACCUAAACAGUUUAAGCAUUUUGAAUUAGUUGGAGUUUAAAUGGAUUACAUUUGGUGUAUAUUGUCUUCAUUGAAAAGAUAUUGUUGGAUAUGCCACAUUGGAAUUCUCGGGUGCCAA | 0.513
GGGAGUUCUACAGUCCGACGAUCCAGGGACGCAGUUGUUACGAGGUUAGACGUGGCAGCUCUGUGCAGUGUUUGAGCCUACAGUGGGAUACAUAGGGUCAAAUUGAGAAUAAUAAACUGAGUCAUUCUCCUGGUGGAAUUCUCGGGUGCCAA | 0.561
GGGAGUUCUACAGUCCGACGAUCUUUUAAAGUAGCUGUAAUUUUUAAAUAUUUCUAAACUUUUCUUAAACCACUAAAAUUAAGCUCUUACUACUUAGUCAACUAUCCUCAGCUGUAUUCGUACUCAAUUGUCAUGGAAUUCUCGGGUGCCAA | 1.3
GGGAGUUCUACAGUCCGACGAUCGUACCUGAAACUAGGUCUGGGGCACUCCCAAUGCAGCGCCUUGUCAGCCAAGGUGGGCAGGCAGGGACUGUGGCAGCUUAUGUCCAAAGGGAGCCCCCAUGCACAGGAAGUGGAAUUCUCGGGUGCCAA | 0.414
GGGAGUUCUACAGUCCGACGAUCGAUUGGAUUUUUGUAUAAAAAGAUAAUGCUGUCAAACGGGAACUGACCUUUAUUGAAUCUGAAAUGAUACAUAGCUGUGUGUGUAUAUAUAUUUUUUAAAAAUAGGUUCAUGGAAUUCUCGGGUGCCAA | 0.657
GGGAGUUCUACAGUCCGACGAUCACAUCCCCUGCUGCUUGGUUGACCCCCCCAAAUCCAGGGUCACUGCUCAGCUCUGCUUAUAGCUAUACCUGCCUCUUAGGUCUUCUGUUUGCCCGUUUCUGAGGUCAGAUUGGAAUUCUCGGGUGCCAA | 0.307
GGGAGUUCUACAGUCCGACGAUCCUUCCAGAUUGCUGGUUCCAGAAGAUGUAAUUUGCCACUGUGUGCUGCACGGCUAGGGAGUGUCAUCUCAGCUGAAGGCCUCACCCAAGACAGGCAGACAGACAUGAACAUGGAAUUCUCGGGUGCCAA | 0.311

Study 4
Target: Centromere-binding protein 1, full length, N-terminal tag (CBF1, Saccharomyces cerevisiae, UniProt P17106, residues 1-351)
Sequence of UniProt P17106 (whole entry, looked up): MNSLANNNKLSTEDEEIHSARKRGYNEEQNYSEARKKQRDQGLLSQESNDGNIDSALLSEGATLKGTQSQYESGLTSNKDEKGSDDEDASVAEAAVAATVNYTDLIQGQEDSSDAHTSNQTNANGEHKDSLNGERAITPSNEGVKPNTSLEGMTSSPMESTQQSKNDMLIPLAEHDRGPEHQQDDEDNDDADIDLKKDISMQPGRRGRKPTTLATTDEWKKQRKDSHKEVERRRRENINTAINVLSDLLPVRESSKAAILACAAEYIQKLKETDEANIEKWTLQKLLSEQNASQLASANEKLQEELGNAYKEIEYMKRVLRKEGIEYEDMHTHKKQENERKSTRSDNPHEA
Technique: protein-binding microarray
Form: double-stranded DNA, one strand shown
Sample: in vitro
Concentration: 0.8 µM
Setting: whole 60-bp probe, no competitor
Reading: higher = stronger binding
Strand | fluorescence intensity [a.u.]
CTAAAGATCACCACGCACGTTTAGGGGATCGGATTCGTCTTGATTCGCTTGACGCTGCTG | 567
CTATCCATACTCCGTGGCGTGCATGTGTTTTAGTTCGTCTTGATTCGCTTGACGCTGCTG | 773
CTAAATAGAATCTTTAATGATCACAGTGGATCTTTCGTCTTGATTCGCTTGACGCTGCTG | 538
CTAAAGTAAACTTCTCACCTGTAAATACTAGTATTCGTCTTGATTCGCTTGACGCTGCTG | 516
GAATTTGTATGTATGCGTGTGTTAACTATCCTGTAGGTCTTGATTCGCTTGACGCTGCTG | 565
CTATATAGAAGTGACAACGTGTTTTTTCGTTTTTTCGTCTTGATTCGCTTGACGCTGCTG | 592
CCTAACTACTATATTAGCGTGCCATAGCTTCGTACAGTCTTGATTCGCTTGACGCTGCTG | 510
CTAACTGAGACCATCCACGTTGTGGGCACCACCTTCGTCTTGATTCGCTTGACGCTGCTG | 501
CTAAAAGAAAAAAGTCACGCAAAGTTGCAAACATTCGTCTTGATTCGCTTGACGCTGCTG | 596
GAACTTATAAATGCGCACGTATTATTTTCATTTTAGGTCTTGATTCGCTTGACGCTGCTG | 546
GAATAACCTGCTCTACACCTGACTCACATGACATAGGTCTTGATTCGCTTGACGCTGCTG | 2470
GAACATCCTAACGAGCACATGTCGGTGGACCAATAGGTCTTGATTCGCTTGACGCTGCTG | 747
CTACTGCTCTCGCTCCACGTTGTCATCCCACCCTTCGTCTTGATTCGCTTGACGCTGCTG | 689
GAATCGGCATGTCATCACCAGCGAGTTCGCCGGTAGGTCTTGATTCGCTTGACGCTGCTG | 486
CTATGTTAATAGGCTCAGCTGTTCATAAAATATTTCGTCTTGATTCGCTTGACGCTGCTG | 591
CTATACCATGTGCGCCACGAGGCCTCAAACGTATTCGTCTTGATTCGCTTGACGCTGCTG | 826
GAAAAAATTGACCTGCACATGGAGAAAGCGTAATAGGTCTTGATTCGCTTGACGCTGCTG | 601
CTAGTGCTTTGTTGTTCACGTGCTTTTCACGTGTTCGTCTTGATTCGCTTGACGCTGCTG | 10200
CTATTAACAAGAAACGTGATGGTACACACAAAGTTCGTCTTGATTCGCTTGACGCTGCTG | 1510
CTATATTATATATGCCACATGACTGCAGGGTCCTTCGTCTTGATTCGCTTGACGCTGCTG | 1580
GAATAATGTGCTGCTCAGGTGCCGCGTATATCATAGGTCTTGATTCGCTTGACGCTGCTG | 659

Study 5
Target: CCNB2, cyclin fold, Cln2 fusion (human)
Technique: yeast growth competition, sequencing
Sample: yeast
Setting: weak parent motif
Reference: not given
Reading: higher = stronger binding
Parent: ORC1 docking peptide (human); PRARKRLELGNLG; partner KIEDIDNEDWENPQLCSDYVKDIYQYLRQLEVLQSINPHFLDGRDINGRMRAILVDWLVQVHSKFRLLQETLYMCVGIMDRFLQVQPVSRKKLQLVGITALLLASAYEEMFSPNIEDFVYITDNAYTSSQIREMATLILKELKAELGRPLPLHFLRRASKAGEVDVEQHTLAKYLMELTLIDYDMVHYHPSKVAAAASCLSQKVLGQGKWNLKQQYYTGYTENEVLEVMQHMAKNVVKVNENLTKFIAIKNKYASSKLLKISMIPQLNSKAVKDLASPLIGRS
Variant | normalised enrichment score
L7C | 0.664
K5H | 0.258
A3C | 0.787
K5E | 0.157
K5M | 0.226
R6H | 0.0844
N11T | 0.766
K5V | 0.122
G10E | 0.608
G13T | 0.503
L12A | 0.522
R6A | -0.00778
G13A | -0.0684
L9Y | 0.259
G13M | 0.22
G10L | 1.18
N11H | 0.313
A3Y | 1.26

A few entries again (study 4):
Strand | fluorescence intensity [a.u.]
CTAAAGATCACCACGCACGTTTAGGGGATCGGATTCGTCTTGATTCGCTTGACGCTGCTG | 567
CTATCCATACTCCGTGGCGTGCATGTGTTTTAGTTCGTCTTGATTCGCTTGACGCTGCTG | 773
CTAAATAGAATCTTTAATGATCACAGTGGATCTTTCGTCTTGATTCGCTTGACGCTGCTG | 538
CTAAAGTAAACTTCTCACCTGTAAATACTAGTATTCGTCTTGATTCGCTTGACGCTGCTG | 516
GAATTTGTATGTATGCGTGTGTTAACTATCCTGTAGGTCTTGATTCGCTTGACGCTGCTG | 565
CTATATAGAAGTGACAACGTGTTTTTTCGTTTTTTCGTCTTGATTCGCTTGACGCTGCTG | 592
CCTAACTACTATATTAGCGTGCCATAGCTTCGTACAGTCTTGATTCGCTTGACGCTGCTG | 510
CTAACTGAGACCATCCACGTTGTGGGCACCACCTTCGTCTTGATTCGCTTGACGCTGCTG | 501
CTAAAAGAAAAAAGTCACGCAAAGTTGCAAACATTCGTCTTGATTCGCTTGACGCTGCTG | 596
GAACTTATAAATGCGCACGTATTATTTTCATTTTAGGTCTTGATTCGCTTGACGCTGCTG | 546
GAATAACCTGCTCTACACCTGACTCACATGACATAGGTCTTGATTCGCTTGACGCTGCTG | 2470
GAACATCCTAACGAGCACATGTCGGTGGACCAATAGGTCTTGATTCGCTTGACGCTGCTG | 747
